Published values from different studies.
“And” joins repeats or separate records; there may be more than shown. ± marks the error that the study gave.

C=C(NC(=O)c1csc(-c2nc3c(cc2O)-c2nc(cs2)C(=O)NC(C(C)O)C(=O)NC(=C(C)OC)c2nc(cs2)C(=O)NC2c4nc(cs4)C(=O)NC(COC(=O)c4c5c6c(cccc6n4O)COC(=O)C(OC4CC(C)(O)C(N(C)C)C(C)O4)C2OC5)c2nc-3cs2)n1)C(N)=O (stereo not drawn) has a half-life of 5.87 h (cynomolgus monkey, male, plasma; intravenous infusion, 3 mg/kg multiple doses, day 7).
With CCCC[C@H](OC(C)=O)c1ccccc1C(=O)O the half-life was 0.24 ± 0.02 h (beagle dog, both sexes, whole blood; intravenous, 1.5 mg/kg, day 7, fit of 1 h data).
The Cmax of CCC(CC)n1c(Cc2cccs2)nc2cc(C(=O)N[C@@H](CC(=O)O)c3ccccc3)ccc21 is reported as 1160 ng/mL (male Sprague-Dawley rat, plasma; intravenous, 1 mg/kg).
With N#Cc1cccc(-c2ccc3ncc(-c4cc(F)cc(F)c4)c(N4CCC(N)CC4)c3c2)c1OC1OC(C(=O)O)C(O)C(O)C1O (stereo not drawn) the excreted radioactivity was 21.8% (human, urine and faeces; oral, 20 mg, added: 14C-labelled drug; reference: dose).
For C=CC[C@@H]1/C=C(\C)C[C@H](C)C[C@H](OC)[C@H]2O[C@@](O)(C(=O)C(=O)N3CCCC[C@H]3C(=O)O[C@H](/C(C)=C/[C@@H]3CC[C@@H](O)[C@H](OC)C3)[C@H](C)[C@@H](O)CC1=O)[C@H](C)C[C@@H]2OC, the dose-normalized AUC(0-12h) was 144 ± 57.5 ng·h/mL (kidney transplant recipients, CYP3A5 *3/*3, whole blood; oral, dose not given, early phase, limited sampling).
COc1ccc2c(c1)CN(C(=O)CCN1CCC(Cc3ccccc3)CC1)CC[S+]2[O-] (stereo not drawn) gave a fu of 0.145 (human plasma; 75 ng/mL).
C=CC(=O)Nc1cc(Nc2nccc(-c3cn(C)c4ccccc34)n2)c(OC)cc1N(C)CCNC gave a recovery of 94.1% (human plasma; 5 h, storage stability, medium QC sample).
O=C(Nc1cnccc1-c1ccc([18F])cc1)c1ccnc(NC(=O)C2CC2)c1 gave an SUV of 0.29 (ex vivo gamma counting; FVB/NJ mice, both sexes, bone; intravenous, 120 min, mean, P-gp inhibitor pretreatment, added: tariquidar 15 mg/kg iv).
For CC[C@H](C)[C@@H]1NC(=O)[C@H](CCCNC(=N)N)NC(=O)[C@@H](NC(=O)[C@H](CCCCN)NC(=O)[C@H](Cc2c[nH]c3ccccc23)NC(C)=O)CSC=CCCC[C@@H](C(=O)N[C@@H](CCCNC(=N)N)C(=O)N[C@@H](CC(C)C)C(=O)N[C@@H](CC(C)C)C(=O)N[C@@H](CCC(N)=O)C(=O)N[C@@H](CCC(=O)O)C(N)=O)NC(=O)[C@H](CC(C)C)NC1=O, the helicity was 44% (circular dichroism; 10 mM phosphate buffer; pH 7.4, 20 °C).
CC1Cc2ccccc2N1C(=O)CN1CCN(Cc2ccccc2)CC1 (stereo not drawn) gave a concentration of 86 ng/mL and 81 ng/mL (female NMRI mice, whole blood; intraperitoneal, 10 mg/kg free base, 60 min).
With COc1cccc(OC)c1-c1cc(C(=O)NC2(C(=O)O)C3CC4CC(C3)CC2C4)nn1-c1ccc(C(=O)N(C)CCOCCN(C)C(=O)[C@H](CCCCNC(=O)[C@H](CC(C)C)NC(=O)C2OC2C(=O)O)NC(=O)CN2CCN(CC(=O)[O-])CCN(CC(=O)[O-])CCN(CC(=O)[O-])CC2)cc1C(C)C.[177Lu+3] (mixture of isomers) the tumour-to-lung ratio was 8.67 (mouse, HT-29 xenograft; 72 h post injection, biodistribution; reference: tumour over lung uptake).
With CC[C@H](C)[C@H](NC(=O)[C@H](CCCCN)NC(=O)[C@H](CCC(=O)O)NC(=O)[C@H](CCCCN)NC(=O)[C@H](CC(C)C)NC(=O)[C@H](C)NC(=O)[C@H](C)NC(=O)[C@@H](NC(=O)[C@H](CCCCN)NC(=O)[C@@H]1CSCc2ccccc2CSC[C@H](NC(=O)[C@@H](NC(=O)[C@H](CCCCN)NC(C)=O)[C@@H](C)CC)C(=O)N[C@@H](C)C(=O)N[C@@H](CC(C)C)C(=O)N[C@@H](CCCCN)C(=O)N1)[C@@H](C)CC)C(=O)N[C@@H](C)C(=O)N[C@@H](C)C(=O)N[C@@H](CC(C)C)C(=O)N[C@@H](CCCCN)C(=O)N[C@@H](CCC(=O)O)C(=O)NCC(=O)N[C@@H](Cc1c[nH]c2ccccc12)C(N)=O the helicity was 54% (circular dichroism at 222 nm; PBS; pH 7.4, 20 °C, single peptide 50 µM total).

Repeated from above:
CC1Cc2ccccc2N1C(=O)CN1CCN(Cc2ccccc2)CC1 (stereo not drawn) gave a concentration of 86 ng/mL and 81 ng/mL (female NMRI mice, whole blood; intraperitoneal, 10 mg/kg free base, 60 min).
With COc1cccc(OC)c1-c1cc(C(=O)NC2(C(=O)O)C3CC4CC(C3)CC2C4)nn1-c1ccc(C(=O)N(C)CCOCCN(C)C(=O)[C@H](CCCCNC(=O)[C@H](CC(C)C)NC(=O)C2OC2C(=O)O)NC(=O)CN2CCN(CC(=O)[O-])CCN(CC(=O)[O-])CCN(CC(=O)[O-])CC2)cc1C(C)C.[177Lu+3] (mixture of isomers) the tumour-to-lung ratio was 8.67 (mouse, HT-29 xenograft; 72 h post injection, biodistribution; reference: tumour over lung uptake).
